# Assay results gathered from unrelated publications.
# Parts stem from different laboratories: compare values within a part only.

# Set 1
# Target: Ras GTPase-activating protein-binding protein 1, RRM domain (G3BP1, Homo sapiens, UniProt Q13283)
# UniProt Q13283, sequence (whole entry, looked up): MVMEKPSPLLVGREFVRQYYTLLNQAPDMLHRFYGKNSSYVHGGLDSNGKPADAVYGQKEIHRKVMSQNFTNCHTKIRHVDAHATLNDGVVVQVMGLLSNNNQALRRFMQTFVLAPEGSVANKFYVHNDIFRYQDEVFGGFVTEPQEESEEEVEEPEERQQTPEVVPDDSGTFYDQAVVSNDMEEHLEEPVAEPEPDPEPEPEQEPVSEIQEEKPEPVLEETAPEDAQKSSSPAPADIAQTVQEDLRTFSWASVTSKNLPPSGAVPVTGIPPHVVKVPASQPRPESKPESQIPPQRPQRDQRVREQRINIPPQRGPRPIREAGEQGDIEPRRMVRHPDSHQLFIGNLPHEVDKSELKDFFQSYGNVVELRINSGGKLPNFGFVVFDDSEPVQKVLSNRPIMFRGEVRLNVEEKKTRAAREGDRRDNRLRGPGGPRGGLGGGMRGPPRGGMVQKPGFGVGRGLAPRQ
# Technique: RNA Bind-n-Seq
# Molecule type: RNA
# Matrix: in vitro
# Concentration: 1 µM
# Setting: whole 134-nt RNA, ends assumed
# Added: 150 mM KCl
# Relative to: input library
# Reading: higher = stronger binding
Strand,log2 enrichment
GGGAGUUCUACAGUCCGACGAUCACCAUGCAGGGGGGCAUCUUUGGGAAGUGGGGCAAGGGGGGGAUAGGGAGGGGGGUAACACUUUGGGAACAGGUGGUCCCAGGUCGUUUCUGGAAUUCUCGGGUGUCAAGG,-0.245
GGGAGUUCUACAGUCCGACGAUCACCAUGCAGGUGGGCAUCUUUGGGAAGUGGGGCAAGGGGGGGAUAGGGAGGGGGGUAACACUUUGGGAACAGGUGGGCCCAGGUCGUUUCUGGAAUUCUCGGGUGUCAAGG,1.32
GGGAGUUCUACAGUCCGACGAUCCACAGACAACACGCACCCACACAGACACCGAGGGAAGGGGUUGGGAUGGGGACAGGGUGCACAGCAGGGCGGGGUAGGACCCCAGCCCCUUGGAAUUCUCGGGUGUCAAGG,0.0779
GGGAGUUCUACAGUCCGACGAUCUGGCCCUGGUGGCAUGCGGGGAGGAAGAGGUGGCCUCAUGGAUCGUGGUGGUCCCGGUGGAAUGUUCAGCGGUGGCCGUGGUGGAGACAGUGGAAUUCUCGGGUGUCAAGG,1.39

# Set 2
# Target: Histone acetyltransferase KAT6A, winged helix 1, GST fusion (KAT6A, Homo sapiens, UniProt Q92794, residues 1-85)
# Technique: protein binding microarray
# Molecule type: double-stranded DNA, one strand shown
# Matrix: in vitro
# Concentration: not given
# Setting: 8-mer, flanks averaged, mean of 2 arrays, mostly near background
# Relative to: not given
# Reading: higher = stronger binding
# Construct (chain): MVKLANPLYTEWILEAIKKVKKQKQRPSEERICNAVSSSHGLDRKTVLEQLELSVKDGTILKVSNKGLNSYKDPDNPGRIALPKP
Strand,E-score
AATTTACT,-0.038
ATGCGCAT,0.258
AGATTTCG,0.0491
AAACCAAA,-0.151
GAATCCGC,0.183
AATGAGCT,-0.187

# Set 3
# Target: Interferon regulatory factor 5, full length, phosphomimetic (IRF5, Homo sapiens, UniProt Q13568-2, residues 1-514, S451D/S453D/S456D/S462D)
# Technique: protein-binding microarray
# Molecule type: double-stranded DNA, one strand shown
# Matrix: in vitro
# Concentration: 940 nM top
# Setting: 60-bp whole probe
# Added: salmon DNA 0.4 mg/ml
# Relative to: random background probes
# Reading: higher = stronger binding
# Constant ends, left off below: GCCTAGCAC … GTGCTAGGTCTTGATTCGCTTGACGCTGCTG
Strand,fitted relative affinity [z-score]
GAGAGAGCTTGTCTGCAGCC,-0.858
GACGGTATCCTTTTACTGAC,0.475
TTAGGACTGGGTTACGGTTA,-0.157
TTTGCTCTGTGCATAGGTCT,-0.297
GGTCTTTTCGCTTTCTTTAC,3
GAGAATTTCCACTTTGACTT,0.869

# Mixed results
Molecule,target,test,test system,setting,how to read,endpoint,value
"PhoQ, residues 284 288 289 292 302 303 SSTLLI","PhoP, residues 12 14 15 18 19 IFFTR (Escherichia coli, UniProt P23836)","Sort-seq, refers to: YFP reporter",E. coli,"PhoQ-PhoP variant library, added: 10 µM Mg2+","relative to: high Mg2+ state, higher = stronger signaling",fold induction,2.49

# For quick reference, copied from above (set 1):
Strand,log2 enrichment
GGGAGUUCUACAGUCCGACGAUCUGGCCCUGGUGGCAUGCGGGGAGGAAGAGGUGGCCUCAUGGAUCGUGGUGGUCCCGGUGGAAUGUUCAGCGGUGGCCGUGGUGGAGACAGUGGAAUUCUCGGGUGUCAAGG,1.39
